Measurements collected from several papers.
Compare with care: the assays were run in different laboratories. Several values in a cell are separate wells, animals, samples, runs or records. ± marks the error that the study gave.
Kir3.1/Kir3.4: Kir3.1/Kir3.4 (Homo sapiens, UniProt P48544+P48549)
Chain of UniProt P48544 (whole entry, looked up): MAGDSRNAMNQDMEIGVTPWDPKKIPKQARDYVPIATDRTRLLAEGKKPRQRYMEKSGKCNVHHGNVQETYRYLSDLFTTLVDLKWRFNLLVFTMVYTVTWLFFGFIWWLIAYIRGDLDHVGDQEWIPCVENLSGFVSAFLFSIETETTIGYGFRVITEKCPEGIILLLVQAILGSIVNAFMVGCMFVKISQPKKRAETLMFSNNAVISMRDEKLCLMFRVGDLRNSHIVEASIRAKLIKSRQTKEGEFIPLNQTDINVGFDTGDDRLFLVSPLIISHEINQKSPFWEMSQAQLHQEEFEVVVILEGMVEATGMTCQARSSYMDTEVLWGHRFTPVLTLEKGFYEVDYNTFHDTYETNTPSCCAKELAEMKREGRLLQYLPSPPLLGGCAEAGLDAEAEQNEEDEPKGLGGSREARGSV
Chain of UniProt P48549 (whole entry, looked up): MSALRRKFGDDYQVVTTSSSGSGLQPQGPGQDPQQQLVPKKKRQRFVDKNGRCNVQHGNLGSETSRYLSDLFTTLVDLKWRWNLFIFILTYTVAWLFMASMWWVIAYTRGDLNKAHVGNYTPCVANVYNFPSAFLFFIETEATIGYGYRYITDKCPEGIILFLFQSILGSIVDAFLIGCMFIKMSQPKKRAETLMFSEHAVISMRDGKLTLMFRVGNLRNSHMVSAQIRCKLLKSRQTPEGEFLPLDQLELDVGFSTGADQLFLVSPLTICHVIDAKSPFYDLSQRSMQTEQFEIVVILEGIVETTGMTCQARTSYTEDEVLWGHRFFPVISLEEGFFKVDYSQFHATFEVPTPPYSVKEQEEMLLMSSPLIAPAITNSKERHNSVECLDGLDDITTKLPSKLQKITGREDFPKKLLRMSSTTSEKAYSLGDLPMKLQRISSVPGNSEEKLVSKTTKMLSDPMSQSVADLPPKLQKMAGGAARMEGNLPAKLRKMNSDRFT
pyrD: Dihydroorotate dehydrogenase (quinone) (pyrD, Acinetobacter baumannii, UniProt B7GZW7)
Chain of UniProt B7GZW7 (whole entry, looked up): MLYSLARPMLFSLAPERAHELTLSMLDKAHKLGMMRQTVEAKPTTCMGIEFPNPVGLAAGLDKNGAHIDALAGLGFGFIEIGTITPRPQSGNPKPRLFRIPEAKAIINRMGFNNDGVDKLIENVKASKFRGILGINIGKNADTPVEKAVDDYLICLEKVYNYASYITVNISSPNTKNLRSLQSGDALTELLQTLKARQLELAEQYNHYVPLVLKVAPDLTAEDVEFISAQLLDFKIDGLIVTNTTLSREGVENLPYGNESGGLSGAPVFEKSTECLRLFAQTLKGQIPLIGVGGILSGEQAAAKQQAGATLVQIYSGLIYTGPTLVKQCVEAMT
GUK1: GUK1 (Homo sapiens, UniProt Q16774)
Chain of UniProt Q16774 (whole entry, looked up): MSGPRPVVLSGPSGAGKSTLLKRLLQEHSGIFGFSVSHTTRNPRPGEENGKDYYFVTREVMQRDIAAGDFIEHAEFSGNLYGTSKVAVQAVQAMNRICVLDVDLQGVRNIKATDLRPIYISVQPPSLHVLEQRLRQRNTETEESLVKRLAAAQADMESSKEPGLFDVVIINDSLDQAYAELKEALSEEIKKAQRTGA
T1: riboswitch RNA A38C (Bacillus); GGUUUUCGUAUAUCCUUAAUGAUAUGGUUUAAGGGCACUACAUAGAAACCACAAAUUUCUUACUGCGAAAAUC
Chain of UniProt Q13936 (whole entry, looked up): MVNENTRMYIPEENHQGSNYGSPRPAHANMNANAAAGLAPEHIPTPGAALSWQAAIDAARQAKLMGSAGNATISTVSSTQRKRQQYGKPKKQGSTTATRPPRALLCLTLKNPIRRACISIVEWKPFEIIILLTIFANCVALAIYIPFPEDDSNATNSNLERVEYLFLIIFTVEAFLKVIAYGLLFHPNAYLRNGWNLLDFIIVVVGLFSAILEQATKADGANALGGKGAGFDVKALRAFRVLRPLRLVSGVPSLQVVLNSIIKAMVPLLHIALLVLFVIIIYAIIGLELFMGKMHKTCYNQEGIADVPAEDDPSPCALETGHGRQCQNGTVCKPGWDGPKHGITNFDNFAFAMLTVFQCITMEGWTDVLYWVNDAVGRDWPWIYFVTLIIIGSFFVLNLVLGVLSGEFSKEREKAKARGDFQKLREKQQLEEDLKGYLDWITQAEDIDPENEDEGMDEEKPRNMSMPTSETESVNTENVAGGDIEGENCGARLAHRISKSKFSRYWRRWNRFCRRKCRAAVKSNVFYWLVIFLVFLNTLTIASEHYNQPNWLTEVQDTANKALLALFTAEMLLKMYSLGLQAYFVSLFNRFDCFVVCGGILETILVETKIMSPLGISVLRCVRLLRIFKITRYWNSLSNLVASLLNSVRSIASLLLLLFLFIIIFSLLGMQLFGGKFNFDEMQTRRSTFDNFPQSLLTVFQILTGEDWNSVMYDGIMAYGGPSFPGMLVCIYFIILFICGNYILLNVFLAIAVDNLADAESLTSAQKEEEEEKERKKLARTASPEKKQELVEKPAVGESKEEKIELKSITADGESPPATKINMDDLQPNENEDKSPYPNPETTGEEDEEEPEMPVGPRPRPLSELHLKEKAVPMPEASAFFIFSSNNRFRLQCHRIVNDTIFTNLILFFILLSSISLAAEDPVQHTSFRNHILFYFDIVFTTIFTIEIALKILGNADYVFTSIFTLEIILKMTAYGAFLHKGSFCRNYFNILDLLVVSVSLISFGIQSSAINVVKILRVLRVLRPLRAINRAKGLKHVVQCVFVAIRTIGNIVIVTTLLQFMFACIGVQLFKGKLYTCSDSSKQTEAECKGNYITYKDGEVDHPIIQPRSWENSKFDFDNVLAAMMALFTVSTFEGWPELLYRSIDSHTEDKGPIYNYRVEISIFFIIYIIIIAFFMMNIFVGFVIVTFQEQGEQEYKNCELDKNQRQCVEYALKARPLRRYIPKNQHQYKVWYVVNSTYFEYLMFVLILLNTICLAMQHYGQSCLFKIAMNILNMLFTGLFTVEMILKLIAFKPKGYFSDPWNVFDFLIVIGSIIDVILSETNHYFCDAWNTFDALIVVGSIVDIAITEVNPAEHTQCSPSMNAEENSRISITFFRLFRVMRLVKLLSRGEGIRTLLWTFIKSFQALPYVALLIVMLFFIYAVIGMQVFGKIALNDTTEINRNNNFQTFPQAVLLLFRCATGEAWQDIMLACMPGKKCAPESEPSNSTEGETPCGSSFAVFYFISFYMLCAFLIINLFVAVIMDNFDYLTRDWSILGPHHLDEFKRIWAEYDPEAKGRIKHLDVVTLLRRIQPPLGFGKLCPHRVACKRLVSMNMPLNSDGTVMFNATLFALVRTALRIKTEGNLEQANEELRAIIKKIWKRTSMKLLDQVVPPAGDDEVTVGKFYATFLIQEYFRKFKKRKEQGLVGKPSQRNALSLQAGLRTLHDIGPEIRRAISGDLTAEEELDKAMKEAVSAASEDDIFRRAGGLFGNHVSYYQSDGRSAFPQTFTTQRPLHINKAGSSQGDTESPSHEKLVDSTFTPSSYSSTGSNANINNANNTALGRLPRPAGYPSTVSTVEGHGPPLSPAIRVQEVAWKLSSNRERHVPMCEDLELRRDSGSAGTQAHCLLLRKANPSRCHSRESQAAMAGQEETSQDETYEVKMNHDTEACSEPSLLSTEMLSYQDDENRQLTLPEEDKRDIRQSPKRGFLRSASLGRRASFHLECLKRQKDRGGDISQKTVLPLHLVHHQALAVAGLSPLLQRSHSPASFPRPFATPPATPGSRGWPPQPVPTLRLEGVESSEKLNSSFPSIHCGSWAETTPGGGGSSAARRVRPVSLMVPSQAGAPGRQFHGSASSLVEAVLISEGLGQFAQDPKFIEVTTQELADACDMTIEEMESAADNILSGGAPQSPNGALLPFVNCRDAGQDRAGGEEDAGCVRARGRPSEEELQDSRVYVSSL
Chain of UniProt P51575 (whole entry, looked up): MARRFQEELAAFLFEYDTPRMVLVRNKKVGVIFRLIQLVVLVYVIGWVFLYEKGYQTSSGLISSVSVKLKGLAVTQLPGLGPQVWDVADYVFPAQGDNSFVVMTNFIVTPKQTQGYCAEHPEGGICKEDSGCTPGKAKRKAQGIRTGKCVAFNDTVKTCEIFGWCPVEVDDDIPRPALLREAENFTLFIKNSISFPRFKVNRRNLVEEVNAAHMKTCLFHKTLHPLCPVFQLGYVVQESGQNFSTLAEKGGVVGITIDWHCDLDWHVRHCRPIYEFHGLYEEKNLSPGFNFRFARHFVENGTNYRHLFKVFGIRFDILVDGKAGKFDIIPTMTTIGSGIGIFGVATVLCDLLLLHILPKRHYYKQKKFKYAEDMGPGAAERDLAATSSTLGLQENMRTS
Chain of UniProt Q06418 (whole entry, looked up): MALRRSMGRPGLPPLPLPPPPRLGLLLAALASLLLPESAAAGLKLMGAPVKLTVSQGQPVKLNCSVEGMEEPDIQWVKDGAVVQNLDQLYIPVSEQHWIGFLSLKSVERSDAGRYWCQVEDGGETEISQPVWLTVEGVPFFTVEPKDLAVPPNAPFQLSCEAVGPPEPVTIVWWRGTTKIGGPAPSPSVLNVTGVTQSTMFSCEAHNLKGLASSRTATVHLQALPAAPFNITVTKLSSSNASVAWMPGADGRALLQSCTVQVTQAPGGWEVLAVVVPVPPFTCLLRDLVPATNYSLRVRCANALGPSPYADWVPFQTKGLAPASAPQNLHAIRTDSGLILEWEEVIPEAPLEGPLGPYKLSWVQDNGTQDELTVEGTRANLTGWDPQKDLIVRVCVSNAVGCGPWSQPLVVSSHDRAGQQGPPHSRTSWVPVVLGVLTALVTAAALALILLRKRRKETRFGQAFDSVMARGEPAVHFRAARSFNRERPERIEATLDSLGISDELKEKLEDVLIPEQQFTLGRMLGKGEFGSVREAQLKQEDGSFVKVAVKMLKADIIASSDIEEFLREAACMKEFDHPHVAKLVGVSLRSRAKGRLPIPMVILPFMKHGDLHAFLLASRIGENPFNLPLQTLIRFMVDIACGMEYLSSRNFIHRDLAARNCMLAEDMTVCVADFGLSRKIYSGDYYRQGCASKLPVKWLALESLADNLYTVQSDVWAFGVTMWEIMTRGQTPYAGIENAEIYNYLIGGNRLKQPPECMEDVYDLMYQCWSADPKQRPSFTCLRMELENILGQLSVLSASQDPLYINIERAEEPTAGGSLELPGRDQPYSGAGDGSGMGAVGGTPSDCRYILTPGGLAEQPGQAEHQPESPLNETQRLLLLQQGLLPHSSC

SMILES	tested on	assay	system	conditions	scale	quantity	result
O=C(O)[C@@H]1CCCN1c1ncnc2[nH]cnc12 (racemic)	Protein transport protein Sec31A (SEC31A, Homo sapiens, UniProt O94979)	binding, affinity selection mass spectrometry			reference: other proteins in batch	log fold enrichment	-0.0166
NC/C(=C\F)COc1cccc(Cn2c(=S)[nH]c(=O)c3[nH]cnc32)c1	CACNA1C (Homo sapiens, UniProt Q13936)	peak ion current, inhibitor, automated patch clamp		10 µM, pulse 10, single recording		inhibition	-1.1% and -0.5% and -1.9%
CC1=NN(c2ccccn2)C(=O)C1=NNc1ccc(S(N)(=O)=O)cc1	bovine α-glucosidase	enzyme activity, inhibitor, glucose oxidase		200 µg/mL, with: maltose		inhibition	43.2%
CCOc1ccc(NC(=O)O[C@H](Cn2nc(C(C)C)cc2C(C)C)C(C)C)cc1	Neuronal acetylcholine receptor; alpha4/beta2, (α4)2(β2)3 stoichiometry (Homo sapiens, UniProt P17787+P43681)	two-electrode voltage clamp	Xenopus oocytes	10 µM, high-sensitivity stoichiometry, with: ACh 10 µM	reference: ACh alone	ACh-evoked current	88 ± 9%
O=c1nc(SCc2cc(F)cc(C(F)(F)F)c2)nc(SCc2ccc3sccc3c2)[nH]1	TOP2A (Homo sapiens, UniProt P11388)	DNA relaxation		31.25 µM, replicate 2		relaxed DNA	0%
CC1(C)CC[C@]2(C(=O)O)CC[C@]3(C)C(=CC[C@@H]4[C@@]5(C)C[C@@H](O)[C@H](OC(=O)/C=C/c6ccc(O)cc6)C(C)(C)[C@@H]5CC[C@]43C)[C@@H]2C1 (relative stereo)	Presenilin-1, N-terminal fragment (PSEN1, Homo sapiens, UniProt P49768)	S3′ subsite probe binding, competitor, item: PS1 labelling	HeLa membranes			photoaffinity labelling	no effect
CCc1cc(NC(=O)COc2cc(Cl)ccc2Cl)n(C2CCOCC2)n1	Kir3.1/Kir3.4	thallium flux, activator	HEK293		reference: standard compound	Emax	64%
Cc1cc2nc3c(=O)[nH]c(=O)nc-3n(C[C@H](O)[C@H](O)[C@H](O)COP(=O)(O)O)c2cc1C		binding, MIDAS equilibrium dialysis LC-MS	A2AR-BRIL thermostabilized	concentration not given	reference: no-protein control	log2 fold change	-0.322
Nc1ncnc2c1ncn2[C@@H]1O[C@H](COP(=O)(O)CP(=O)(O)OP(=O)(O)O)[C@@H](O)[C@H]1O	P2X purinoceptor 1 (P2RX1, Homo sapiens, UniProt P51575)	saturation binding	HEK293	79 nM		specific binding	5260 CCPM and 8520 CCPM and 8620 CCPM and 3320 CCPM and 8300 CCPM
Cc1cc(Nc2ccc(S(F)(F)(F)(F)F)cc2)n2nc(C)nc2n1	pyrD	enzyme activity, inhibitor, colorimetric HTS, item: DCIP reduction		3 µM	direction not given	robust Z-score	23.3
Nc1nc2c(ncn2[C@H]2C[C@H](O)[C@@H](CO)O2)c(=O)[nH]1	T1, riboswitch RNA A38C (Bacillus)	ITC		KCl 50 mM		Kd	800 nM
CC[C@H](C)[C@H](NC(=O)[C@H](CCC(=O)O)NC(=O)[C@H](C)NC(=O)[C@@H](NC(=O)[C@H](Cc1c[nH]cn1)NC(=O)[C@H]1CCC[C@@H]1NC(=O)[C@H](CCC(=O)O)NC(=O)[C@H](C)NC(=O)[C@H]1CCC[C@@H]1NC(=O)[C@H](CC(C)C)NC(=O)[C@H](Cc1c[nH]cn1)NC(=O)[C@H](Cc1c[nH]cn1)NC(=O)[C@H]1CCC[C@@H]1NC(=O)[C@H](Cc1ccccc1)NC(=O)[C@H](Cc1ccccc1)NC(=O)[C@H](CCCNC(=N)N)NC(=O)[C@H](CCCNC(=N)N)NC(=O)[C@H](CCCNC(=N)N)NC(=O)[C@H]1CCC[C@@H]1NC(=O)[C@H](CC(=O)O)NC(=O)[C@H](CCC(N)=O)NC(=O)[C@@H](NC(=O)C[C@H](Cc1c[nH]c2ccccc12)NC(=O)[C@H](CCCCN)NC(=O)[C@@H](Cc1c[nH]c2ccccc12)NC(=O)[C@H](CC(C)C)NC(=O)[C@H](CC(=O)O)NC(=O)[C@H](Cc1c[nH]cn1)NC(=O)[C@H](CC(C)C)NC(=O)C[C@@H](N)CC(C)C)[C@@H](C)CC)[C@@H](C)O)C(N)=O	PTH1R (Homo sapiens, UniProt Q03431, T410R)	antagonist, GloSensor cAMP	HEK293 expressing PTH1R	concentration not given, with: PTH(1-34)		cAMP formation	decreased
O=C(COc1cc(Cl)ccc1Cl)Nc1cc(C2CC2)nn1CC(F)(F)F	Kir3.1/Kir3.4	thallium flux, activator	HEK293		reference: standard compound	Emax	25%
Cc1cc2c(NC(=O)c3cccc(C(=O)O)c3)cccc2nn1	CREB-binding protein, bromodomain (CREBBP, Homo sapiens, UniProt Q92793)	binding				ligand efficiency	0.35
CC(=C/C(=O)O)/C=C/C=C(\C)C1C=C2C(C)(C)CCCC2(C)O1 (stereo not drawn)	Rhodopsin (RHO, Homo sapiens, UniProt P08100, E181K)	ER retention, immunostaining co-localization, item: opsin with calnexin	COS-7 transfected E181K	0.05 µM		Pearson correlation coefficient	0.81
Cc1cc(Nc2ccc(C(F)(F)F)cc2)n2nc(S(C)(=O)=O)nc2n1	pyrD	enzyme activity, inhibitor, colorimetric HTS, item: DCIP reduction		3 µM	direction not given	robust Z-score	17.4
C[C@]12C[C@H](O)[C@H]3[C@@H](CCC4=CC(=O)CC[C@@]43C)[C@@H]1CC[C@@H]2C(=O)CO	CYP11B1 (Homo sapiens, UniProt P15538)	substrate		100 µM, 37 °C, phospholipid vesicles		18-hydroxylation product formation rate	1.2 ± 0.1 min⁻¹
Nc1nc2c(ncn2[C@@H]2O[C@H](COP(=O)(O)O)[C@@H](O)[C@H]2O)c(=O)[nH]1	GUK1	enzyme activity, NADH-coupled		7.812 µM, with: KCl 150 mM		reaction velocity	-0.0166 µM/s and 0.00485 µM/s and -0.000526 µM/s
CC(=O)SCCNC(=O)CCNC(=O)[C@H](O)C(C)(C)COP(=O)(O)OP(=O)(O)OC[C@H]1O[C@@H](n2cnc3c(N)ncnc32)[C@H](O)[C@@H]1OP(=O)(O)O	Carnitine O-acetyltransferase (CRAT, Columba livia, UniProt P52826)	stopped-flow global fit		pH 7.8, ambient, ordered bi-bi mechanism		Ki	164 µM
Cc1cc(Nc2ccc(C(F)(F)F)cc2)n2nc(C(C)(F)F)nc2n1	pyrD	enzyme activity, inhibitor, colorimetric HTS, item: DCIP reduction		3 µM	direction not given	robust Z-score	18.5

SMILES	tested on	assay	system	conditions	scale	quantity	result
C[S+](CC[C@H](N)C(=O)[O-])C[C@H]1O[C@@H](n2cnc3c(N)ncnc32)[C@H](O)[C@@H]1O (stereo partly drawn)	KMT2C (Homo sapiens, UniProt Q8NEZ4)	substrate, enzyme-coupled methylation		with: H3 peptide 50 µM		apparent Km	6.7 ± 0.8 µM
NCCS(=O)(=O)O	SLC6A6 (Homo sapiens, UniProt P31641, S402A)	binding, microscale thermophoresis		1.95 µM, room temperature, with: 50 nM labelled protein	higher = more binding	normalised MST signal	-0.0066
C=CC(=O)N1CCC(COCC(=O)N2CCN(c3nc(-c4cnc(N)nc4C(F)F)nc(N4CCOC[C@@H]4C)n3)CC2)CC1	TYRO3 (Homo sapiens, UniProt Q06418)	KINOMEscan		1 µM		remaining binding	100%
O=C(COP(=O)(O)O)[C@@H](O)[C@H](O)[C@H](O)COP(=O)(O)O	Small ribosomal subunit protein uS19 (Homo sapiens, UniProt P62841)	thermal proteome profiling, item: RPS15	HepG2 cell lysate	concentration not given, 57 over 37 °C	reference: compound over control	thermal stability ratio	0.625 and 0.45 and 0.696
N[C@@H](CC(=O)Nc1ccc2ccccc2c1)C(=O)O	rat aminopeptidase III	substrate		concentration not given, pH 7.0		hydrolysis	inactive
Nc1nc(=O)n([C@H]2C[C@H](O)[C@@H](CO)O2)cc1CNCC(CC[C@H](N)C(=O)O)C[C@H]1O[C@@H](n2cnc3c(N)ncnc32)[C@H](O)[C@@H]1O (stereo partly drawn)	DNMT1 (Homo sapiens, UniProt P26358)	radiometric [3H]-SAM		concentration not given, with: SAM, poly(dI-dC)		inhibition type	inhibited
CC(C)(COP(=O)(O)OP(=O)(O)OC[C@H]1O[C@@H](n2cnc3c(N)ncnc32)[C@H](O)[C@@H]1OP(=O)(O)O)[C@@H](O)C(=O)NCCC(=O)NCCS	RNA cytidine acetyltransferase (Homo sapiens, UniProt Q9H0A0)	inhibitor		concentration not given		histone acetyltransferase activity	inhibited
Nc1ncnc2c1ncn2[C@@H]1O[C@H](COP(=O)(O)OP(=O)(O)O)[C@@H](O)[C@H]1O	CKMT1A (Homo sapiens, UniProt P12532, E264A)	substrate, Kinase-Glo luminescence		pH 7.0, reverse reaction, E226A mutant, with: second substrate in excess		kcat	< 0.0001 s⁻¹
NC(=O)c1cccnc1		binding, MIDAS equilibrium dialysis LC-MS	A2AR-BRIL thermostabilized	concentration not given	reference: no-protein control	log2 fold change	-0.158
[Cl-].[K+]	GUK1	enzyme activity, NADH-coupled		15 mM		reaction velocity	0.0673 µM/s and 0.0525 µM/s and 0.0587 µM/s
C[C@@H](N)C(=O)Nc1ccc2ccccc2c1	rat aminopeptidase III	substrate		concentration not given, pH 7.0		hydrolysis	inactive
CCc1cc(NC(=O)COc2ccc(Cl)cc2Cl)n(C2CCOCC2)n1	Kir3.1/Kir3.4	thallium flux, activator	HEK293		reference: standard compound	Emax	81%
CC1=C(/C=C/C(C)=C/C=C/C(C)=C/C=O)C(C)(C)CCC1	Rhodopsin (RHO, Bos taurus, UniProt P02699, F273A)	retinal release, Trp FRET	lipid bicelles	28 °C, F273A mutant	reference: wild-type rhodopsin	relative koff	2.33 ± 0.87
Cn1cc(-c2ccc(-c3cncc(Cl)c3N3CCC4(CCNC4=O)CC3)cc2)cn1	COLO 205	gene expression, microarray, item: ZFP14 mRNA		concentration not given, 2 h	reference: untreated cells	log2 fold change	1.87
CN(C)C(=O)C(CCN1CCC(O)(c2ccc(Cl)cc2)CC1)(c1ccccc1)c1ccccc1	Calcium-activated potassium channel subunit alpha-1, with LRRC26 γ1 subunit (KCNMA1, Homo sapiens, UniProt Q12791)	BK current, inside-out patch clamp	excised membrane patch	10 µM, γ1 subunit coexpressed, with: nominally 0 Ca2+ cytosolic		effective gating valence	1.48 elementary charges
CC(=O)N[C@H]1C(OCCOP(=O)(O)OC[C@H]2O[C@@H](n3ccc(=O)[nH]c3=O)[C@H](O)[C@@H]2O)O[C@H](CO)[C@@H](O)[C@@H]1O (stereo partly drawn)	MGAT3 (Homo sapiens, UniProt Q09327)	enzyme activity, activator, HPLC		2500 µM, with: UDP-GlcNAc 0.5 mM	reference: no compound	relative activity	1.44
CCCCCCc1ccc([C@H]2CC[C@H]([N+](C)(C)CCC)CC2)cc1.[I-]	SPHK2 (Homo sapiens, UniProt Q9NRA0)	inhibitor, radiometric flash-plate	cell lysate	with: sphingosine 5 µM		Ki/Km ratio	8.6
N#Cc1ccn2c(-c3ccncc3)c(-c3ccc(F)cc3)nc2c1	Cyclin-dependent kinase 1 (CDC28, Candida albicans, UniProt P43063)	kinase binding, competitor, MIB/MS competition, item: CDC28	Candida albicans cell lysate	10 µM	reference: DMSO	log2 fold change	-0.167
O=C(CN1C(=O)S/C(=C\c2ccc([N+](=O)[O-])cc2)C1=O)c1ccc([N+](=O)[O-])cc1	AKR1B1 (Homo sapiens, UniProt P15121)	enzyme activity, inhibitor				Hill slope	-0.42

Repeated from above:
SMILES	tested on	assay	system	conditions	scale	quantity	result
C=CC(=O)N1CCC(COCC(=O)N2CCN(c3nc(-c4cnc(N)nc4C(F)F)nc(N4CCOC[C@@H]4C)n3)CC2)CC1	TYRO3 (Homo sapiens, UniProt Q06418)	KINOMEscan		1 µM		remaining binding	100%
CCCCCCc1ccc([C@H]2CC[C@H]([N+](C)(C)CCC)CC2)cc1.[I-]	SPHK2 (Homo sapiens, UniProt Q9NRA0)	inhibitor, radiometric flash-plate	cell lysate	with: sphingosine 5 µM		Ki/Km ratio	8.6
O=C(COP(=O)(O)O)[C@@H](O)[C@H](O)[C@H](O)COP(=O)(O)O	Small ribosomal subunit protein uS19 (Homo sapiens, UniProt P62841)	thermal proteome profiling, item: RPS15	HepG2 cell lysate	concentration not given, 57 over 37 °C	reference: compound over control	thermal stability ratio	0.625 and 0.45 and 0.696
